Measured values of several laboratories.
± gives the spread as reported.
Organism: Plasmodium falciparum

SMILES	test	test system	setting	endpoint	value
CN(CC(=O)Nc1ccc(N(C)c2ccc(Cl)cc2)cc1)c1ccccc1N1CCCC1=O	parasite growth, LDH	3D7 population E, L562R mutant	72 h	EC50	423 nM
CCOC(=O)c1cn(CC)c2cc(O[C@H]3CCN(C(=O)OC(C)(C)C)C3)ccc2c1=O	parasite growth, SYBR Green	3D7 DHODH E182D	72 h	EC50	778 ± 120 nM
Cc1c(C2(c3ccc(C(F)(F)F)nc3)CC2)c[nH]c1C(=O)NC(C)c1nc[nH]n1 (stereo not drawn)	SYBR Green	Uganda field isolates, Albumax medium	72 h, unbound, ex vivo patient isolates	EC50	3.1 nM
Cc1cc(Nc2ccc(S(F)(F)(F)(F)F)cc2)n2nc(C(C)(F)F)nc2n1		Dd2 β5 S27F CRISPR-edited		EC50	5.9 ± 0.62 nM
CC(C)N(c1ccc(Cl)c(F)c1)c1ccc(NC(=O)CN(C)c2ccccc2N2CCCC2=O)cn1	parasite growth, LDH	3D7 population A	72 h	EC50	11 nM
CC[C@H](C)[C@H](NC(=O)[C@H]([C@@H](C)CC)N(C)C(C)=O)C(=O)N[C@H](C(=O)N[C@@H](CC(C)C)C(=O)[C@@]1(C)CO1)[C@@H](C)O		Dd2 β5 S27F resistant		EC50	11 ± 1.5 nM
O=C(CSc1nnc(O)n1Cc1ccccc1)Nc1ccccc1-c1ccccc1	parasite growth, SYBR Green	3D7 wild type	72 h	EC50	788 ± 99 nM
CC(C)C[C@@H](C=O)NC(=O)[C@H](CC(C)C)NC(=O)[C@H](CC(C)C)NC(=O)OCc1ccccc1		Dd2 β3 R190S resistant		EC50	130 ± 17 nM
CCC1(C2=NCCN2)Cc2ccccc2O1 (stereo not drawn)		7G8		IC50	6310 nM
CCn1cc(C2CC2)c2c(CN3CCC(F)(F)CC3(C)C)n(C)nc2c1=O	parasite growth	3D7		EC50	31.6 nM
NCCOCC(=O)N1CCCC(C(=O)NCc2nc(-c3ccc(-c4ccc(F)cc4)cc3)cs2)C1 (stereo not drawn)	parasite growth, SYBR Green	3D7, asexual blood stage	72 h	EC50	73 ± 33 nM
CCOC(=O)c1cn(CC)c2cc(N3CCC(Cc4ccccc4)CC3)c(F)cc2c1=O	parasite growth, [3H]hypoxanthine incorporation	RF12	72 h	EC50	4 nM
CC[C@](O)(c1cnc(C(F)(F)F)c(Cl)c1)c1c2cnn(C3CC3)c(=O)c2nn1C	parasite growth	3D7		EC50	1580 nM
Cc1cc(NC2Cc3cc(F)c(F)cc3C2)n2nc(C(C)(F)F)nc2n1	parasite growth	TM90C2B multidrug-resistant		EC50	36 nM
CN1CCN(S(=O)(=O)c2ccc(-c3ccc4ncnc(Nc5ccc(OCc6cccc(F)c6)c(Cl)c5)c4c3)cc2)CC1	parasite growth, SYBR Green fluorescence	C235 (TM91C235), drug-resistant		EC50	39 nM
CCn1cc(-c2nc(C)no2)c(=O)c2cc(F)c(N3CCC(C)CC3)cc21	parasite growth, [3H]hypoxanthine incorporation	RF12	72 h	EC50	7 nM
Cc1noc(-c2cccs2)c1C(=O)NCCc1cccc(Cl)c1	parasite growth	Dd2		EC50	261 ± 87 nM

SMILES	test	test system	setting	endpoint	value
CC(C)C[C@H](NC(=O)[C@H](Cc1c[nH]c2ccccc12)NC(=O)CN1CCOCC1)C(=O)N[C@H](/C=C/S(C)(=O)=O)Cc1c[nH]c2ccccc12		Dd2 β5 S27F CRISPR-edited		EC50	7.7 ± 1.3 nM
Cc1ccc(N(c2ccc(NC(=O)CN(C)c3ccccc3N3CCCC3=O)cn2)C(C)C)cc1F	parasite growth, LDH	3D7 population D, CSC1 L954F	72 h	EC50	8 nM
CCn1cc(-c2nc(C)no2)c(=O)c2cc(F)c(N3CCC(Cc4ccccc4)CC3)cc21	parasite growth, [3H]hypoxanthine incorporation	Dd2	72 h	EC50	4 nM
COCC(=O)O[C@]1(CCN(C)CCCc2nc3ccccc3[nH]2)CCc2cc(F)ccc2[C@@H]1C(C)C		3D7		IC50	3160 nM
Cc1ccc(N(C)c2ccc(NC(=O)CN(C)c3cccnc3N3CCCC3=O)cc2)cc1	parasite growth, LDH	3D7 population A	72 h	EC50	274 nM
Cc1[nH]c2ccc(-c3ccccc3)cc2c(=O)c1Br	parasite growth, SYBR Green	3D7 wild type	72 h	EC50	165 ± 41 nM
Cc1ccc(N(C)c2ccc(NC(=O)CN(C)c3ccccc3N3CCCC3=O)cc2)cc1	parasite growth, LDH	3D7 population E, L562R mutant	72 h	EC50	158 nM
Cc1nnc(-c2ccc3ccn(CC(=O)Nc4ccccc4Cl)c3c2)o1	parasite viability, SYBR Green flow cytometry	W2mef multidrug-resistant	48 h, asexual blood stage	EC50	272 nM
COc1ccccc1N1CCN(c2cccc(F)c2C#N)CC1	parasite growth, SYBR Green	3D7 wild type	72 h	EC50	4750 ± 2700 nM
CN1CCCN(S(=O)(=O)c2ccc(-c3ccc4ncnc(Nc5ccc(OCc6cccc(F)c6)c(Cl)c5)c4c3)cc2)CC1	parasite growth, SYBR Green fluorescence	C235 (TM91C235), drug-resistant		EC50	50 nM
N#Cc1c(F)cccc1N1CCN(c2ccc(O)cc2)CC1	parasite growth	3D7-E182D	72 h	EC50	> 12500 nM
CCOCC(=O)N1CCC[C@H](C(=O)NCc2nc(-c3ccc(C#N)cc3)cs2)C1		Dd2 β3 R190S resistant		EC50	110 ± 49 nM
COc1ccc(-n2ccnc2SCC(=O)Nc2cc(C(F)(F)F)ccc2Cl)c(OC)c1	parasite growth, SYBR Green	3D7 wild type	72 h	EC50	36 ± 7.1 nM
O=C(O)[C@@H]1Cc2c([nH]c3ccccc23)[C@@H](c2ccc(Cl)cc2Cl)N1	parasite growth	AM1, HAD1 loss-of-function	72 h	EC50	1300 nM
CCCCOc1ccccc1C(=O)NCc1csc(-c2ccccc2)n1	parasite growth, SYBR Green	3D7 DHODH E182D	72 h	EC50	619 ± 110 nM
CCN1CCN(Cc2ccc(Nc3nc4ccc(Oc5ccnc(NC(=O)C6CCN(C)CC6)c5)cc4n3C)cc2C(F)(F)F)CC1		Dd2	72 h	EC50	100 ± 10 nM

Some of these lines once more:
SMILES	test	test system	setting	endpoint	value
Cc1noc(-c2cccs2)c1C(=O)NCCc1cccc(Cl)c1	parasite growth	Dd2		EC50	261 ± 87 nM
Cc1cc(NC2Cc3cc(F)c(F)cc3C2)n2nc(C(C)(F)F)nc2n1	parasite growth	TM90C2B multidrug-resistant		EC50	36 nM
